# Results from different studies.
# Every numbered part comes from another study and shows a few of its results, in no order.

# Series 1
# Target: Interferon regulatory factor 7, full length, phosphomimetic (IRF7, Homo sapiens, UniProt Q92985, residues 1-503, S471D/S472D/S475D/S476D/S477D/S483D/S484D/S487D)
# Sequence of UniProt Q92985 (whole entry, unmodified, looked up): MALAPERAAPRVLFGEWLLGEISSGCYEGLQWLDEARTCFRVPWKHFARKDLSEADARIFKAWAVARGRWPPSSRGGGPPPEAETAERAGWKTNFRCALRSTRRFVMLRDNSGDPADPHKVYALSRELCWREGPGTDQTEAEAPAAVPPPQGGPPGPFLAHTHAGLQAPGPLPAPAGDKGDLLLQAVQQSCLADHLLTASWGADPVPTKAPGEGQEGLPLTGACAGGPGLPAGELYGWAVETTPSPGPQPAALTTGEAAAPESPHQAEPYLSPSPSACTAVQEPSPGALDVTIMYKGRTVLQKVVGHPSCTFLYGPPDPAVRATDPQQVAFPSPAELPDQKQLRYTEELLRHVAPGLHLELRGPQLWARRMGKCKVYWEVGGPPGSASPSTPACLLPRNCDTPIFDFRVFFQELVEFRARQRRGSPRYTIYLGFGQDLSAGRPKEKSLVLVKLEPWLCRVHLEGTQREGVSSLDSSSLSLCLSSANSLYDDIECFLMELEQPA
# Method: protein-binding microarray
# Form: double-stranded DNA, one strand shown
# Sample: in vitro
# Tested at: 2200 nM top
# Notes: 60-bp whole probe
# Added: salmon DNA 0.4 mg/ml
# Reference: random background probes
# Direction: higher = stronger binding
# All sequences stand within: GCCTAGCAC … GTCTTGATTCGCTTGACGCTGCTG
Strand,fitted relative affinity
GACGGTTTCGACTATTGGGACGTGCTA,3.05 z-score
TCATGTCCCCCTTTTATACTGTGCTAG,1.4 z-score
TTAGGTTTCGGGTTACGGTTAGTGCTA,10.9 z-score
CTGCTGGCCTGTTGCTGGAAGTGCTAG,-0.542 z-score
CACCCACTCTTTCCTCACCATGTGCTA,1.98 z-score
GACGGTATCGGTATCGGAACGTGCTAG,0.6 z-score
GACAGTTCCGGTTTCGGGACGTGCTAG,6.55 z-score

# Series 2
# Target: Histone acetyltransferase KAT6A, both winged helices, GST fusion (KAT6A, Homo sapiens, UniProt Q92794, residues 1-181)
# Method: protein binding microarray
# Form: double-stranded DNA, one strand shown
# Sample: in vitro
# Tested at: not given
# Notes: 8-mer, flanks averaged, mean of 2 arrays, mostly near background
# Reference: not given
# Direction: higher = stronger binding
# Target sequence (chain): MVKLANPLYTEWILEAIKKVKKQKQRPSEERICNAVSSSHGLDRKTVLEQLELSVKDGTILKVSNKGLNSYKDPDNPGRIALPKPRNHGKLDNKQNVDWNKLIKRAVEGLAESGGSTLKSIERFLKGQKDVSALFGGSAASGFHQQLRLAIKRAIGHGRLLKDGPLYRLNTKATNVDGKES
Strand,E-score
GGCCGGAA,0.204
CAGGGCTA,-0.134
CAACTTAG,-0.0346
CTCACGCC,0.18
CTATTGGA,-0.0818

# Series 3
# Target: RING finger protein unkempt homolog, zinc fingers 1-6, GST-SBP tag (UNK, Homo sapiens, UniProt Q9C0B0, residues 30-357)
# Sequence of UniProt Q9C0B0 (30-357, looked up): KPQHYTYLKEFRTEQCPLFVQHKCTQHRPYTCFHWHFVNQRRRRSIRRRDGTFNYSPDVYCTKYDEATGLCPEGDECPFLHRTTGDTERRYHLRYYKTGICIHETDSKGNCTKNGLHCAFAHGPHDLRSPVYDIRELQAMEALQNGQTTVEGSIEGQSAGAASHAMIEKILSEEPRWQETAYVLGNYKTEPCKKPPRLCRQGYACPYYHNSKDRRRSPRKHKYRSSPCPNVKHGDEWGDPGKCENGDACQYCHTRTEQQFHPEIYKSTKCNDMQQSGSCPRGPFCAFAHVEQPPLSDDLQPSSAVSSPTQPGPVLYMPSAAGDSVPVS
# Method: RNA Bind-n-Seq
# Form: RNA
# Sample: in vitro
# Tested at: not given
# Notes: RNA with constant flanks, ends assumed
# Reference: input RNA pool
# Direction: higher = stronger binding
# All sequences stand within: GGGAGUUCUACAGUCCGACGAUC … CAACAGAGGAUUGAGCAUCA
Strand,bound/input enrichment
UAUAUCACCAAUGUCCUACAAAAUCCUGACUUGGCUCUGAGAAUGGCUGUGCGGAACAACUCCGCUGGUGCUGAAGAACUCUUUGCCCGGAAAUUUAAUGCUCUCUUCGCCCAGGGAAAC,0.257 ratio
AAAUUUGACUCAAAUGUGAGUGGUCAGUCCUCUUUCGGGACAUCUCCAGCAGCAGACAACACCGAAAAGGAGGCGCUUCCUCGUUAUGAGCCAAUUCCAUUUAGUGCUUCUAUGAACGAG,0.261 ratio
UAUGAUGCCCUGGUUGCCAUGACUAUCUUUUUCAACACUCAAAAUGAGCCAGUACGGCAAUCCGCUAUCUUCUGUCCACACGAGGCACUUCGAAUGACAAUCUGUGGCAUCCUGGAACGA,0.148 ratio
AACGGAGAACUGGAAGAUAAGCCUCCAGCACCUCCUGUGCGAAUGAGCAGCACCAUCUUCCGCACUGGAGGCAAAGACCCUUUGUCAGCCAAUCACAGUUUGAAACCUUUGCCCUCUGUU,0.116 ratio
CUUGAGCCUAACAAGUCCAUCUUCAAGCAAAUGAAAUCUCAUCCACCAUACACCAUGUGCUUCCGAGUGAAAUUCUACCCACAUGAACCCUUGAAGAUUAAAGAAGAGCUCACAAGGUAC,0.231 ratio

# Other studies, line by line
Substance,target,assay,system,setting,how to read,endpoint,value
"PhoQ, residues 284 288 289 292 302 303 SSTLSG","PhoP, residues 12 14 15 18 19 SEGLL (Escherichia coli, UniProt P23836)","Sort-seq, refers to: YFP reporter",E. coli,"PhoQ-PhoP variant library, added: 10 µM Mg2+","reference: high Mg2+ state, higher = stronger signaling",fold induction,10.2
